Experimental data pooled from the literature.
Protocols differ between the studies behind these lines.
Target: Amine oxidase [flavin-containing] A (MAOA, Homo sapiens, UniProt P21397)
Sequence of UniProt P21397 (whole entry, looked up): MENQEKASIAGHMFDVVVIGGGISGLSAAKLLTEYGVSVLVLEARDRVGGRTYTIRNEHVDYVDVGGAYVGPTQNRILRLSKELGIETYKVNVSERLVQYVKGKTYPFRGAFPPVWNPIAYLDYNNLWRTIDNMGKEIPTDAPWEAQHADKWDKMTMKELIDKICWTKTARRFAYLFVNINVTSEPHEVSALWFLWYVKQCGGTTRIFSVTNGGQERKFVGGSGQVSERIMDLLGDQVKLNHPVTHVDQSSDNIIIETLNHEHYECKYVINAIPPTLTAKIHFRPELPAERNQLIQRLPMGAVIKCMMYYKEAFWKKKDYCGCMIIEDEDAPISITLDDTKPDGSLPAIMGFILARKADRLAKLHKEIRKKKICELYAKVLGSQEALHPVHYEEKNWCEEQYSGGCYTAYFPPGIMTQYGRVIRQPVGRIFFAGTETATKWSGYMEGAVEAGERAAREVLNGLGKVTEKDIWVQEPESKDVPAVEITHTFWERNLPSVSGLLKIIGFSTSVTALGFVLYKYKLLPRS
Effect on: enzyme activity
Action: inhibitor

O=C(/C=C/c1ccccc1F)c1cc2ccccc2oc1=O
IC50: > 40 µM

NC(=S)N/N=C/c1ccccc1OCc1ccccc1
IC50 (absorbance): > 40 µM

CC(=O)C1=C(C)NC(SCCCSc2nnc(Cc3ccccc3Nc3c(Cl)cccc3Cl)n2-c2ccc(Cl)c(Cl)c2)=NC1c1ccccc1 (stereo not drawn)
IC50 (fluorescence): 1.44 µM

Oc1ccccc1C1=Nn2c(nnc2-c2ccc(-n3nc(-c4ccccc4O)nc3-c3ccccc3O)cc2)SC1
IC50 (fluorescence): 4.71 µM

COc1cc(/C=C/C(=O)NC(C)C(N)=O)ccc1OCc1ccccc1 (stereo not drawn)
IC50 (fluorescence): 89.5 µM

O=C1c2cc(Cl)ccc2NC12CCCC2
IC50: 20.2 µM

O=C1CCCC2=C1C(c1c[nH]c3ccccc13)n1c(sc(=Cc3c[nH]c4ccccc34)c1=O)=N2 (stereo not drawn)
IC50 (fluorescence): 0.41 µM

O=C(/C=C/c1ccc([N+](=O)[O-])cc1)c1ccc(N2CCNCC2)cc1
IC50 (with preincubation): 35.3 µM

CNC(=S)N/N=C/c1ccc(OCc2ccccc2)cc1
IC50 (absorbance): > 40 µM

O=C(/C=C/c1ccc(Br)cc1)c1cc2ccccc2oc1=O
IC50: > 40 µM

COc1ccc(C2=Nn3c(nnc3-c3ccc(-n4nc(-c5ccccc5O)nc4-c4ccccc4O)cc3)SC2)cc1
IC50 (fluorescence): 2.91 µM

O=C(/C=C/c1ccccc1)c1cc2ccccc2oc1=O
IC50: > 40 µM

NNC(=O)c1ccc(-n2nc(-c3ccccc3O)nc2-c2ccccc2O)cc1
IC50 (fluorescence): 10.1 µM

S=C(N/N=C/c1cccc(OCc2ccccc2)c1)Nc1ccccc1
IC50 (absorbance): 4.49 µM

O=C1c2ccccc2N(Cc2cccc(Br)c2)C12CCCC2
IC50: 5.58 µM

Oc1ccccc1-c1nc(-c2ccccc2O)n(-c2ccc(-c3nnc4n3N=C(c3ccccc3)CS4)cc2)n1
IC50 (fluorescence): 0.63 µM

N#Cc1ccc(CN2c3ccccc3C(=O)C23CCCC3)cc1
IC50: 22.4 µM

O=C(/C=C/c1ccc(Cl)cc1)c1cc2ccccc2oc1=O
IC50: > 40 µM

O=C(/C=C/c1ccc(Br)cc1)c1ccc(N2CCNCC2)cc1
IC50 (with preincubation): > 40 µM

O=C(Cc1ccccc1Nc1c(Cl)cccc1Cl)NNC(=S)Nc1ccc(Cl)c(Cl)c1
IC50 (fluorescence): 20.3 µM

O=C(/C=C/c1ccc(O)cc1)c1ccc(N2CCNCC2)cc1
IC50 (with preincubation): 30.1 µM

NC(=O)N/N=C/c1ccc(OCc2cccc(F)c2)cc1
IC50 (absorbance): 8.44 µM

Oc1ccc(C2=Nn3c(nnc3-c3ccc(-n4nc(-c5ccccc5O)nc4-c4ccccc4O)cc3)SC2)cc1
IC50 (fluorescence): 23.4 µM

O=C1c2cc(Br)ccc2NC12CCCC2
IC50: 20.6 µM

COc1ccc(C2N=C(SCCCSc3nnc(Cc4ccccc4Nc4c(Cl)cccc4Cl)n3-c3ccc(Cl)c(Cl)c3)NC(C)=C2C(C)=O)cc1 (stereo not drawn)
IC50 (fluorescence): 2.36 µM

NC(=O)N/N=C/c1ccccc1OCc1ccccc1
IC50 (absorbance): > 40 µM

O=c1ccoc2ccc(OCCCCCN3CCCCCC3)cc12
IC50 (fluorescence): 30.1 µM

CNC(=S)N/N=C/c1ccccc1OCc1ccccc1
IC50 (absorbance): > 40 µM

O=C(/C=C/c1cccc(F)c1)c1cc2ccccc2oc1=O
IC50: > 40 µM

S=C(N/N=C/c1ccc(OCc2ccccc2)cc1)Nc1ccccc1
IC50 (absorbance): 17.6 µM

O=C1c2ccccc2N(Cc2ccc(F)cc2)C12CCCC2
IC50: 24.2 µM

S=C(N/N=C/c1ccccc1OCc1ccccc1)Nc1ccccc1
IC50 (absorbance): > 40 µM

CN(C)c1ccc(/C=C/C(=O)c2ccc(N3CCNCC3)cc2)cc1
IC50 (with preincubation): 34.1 µM

A few entries again:
CNC(=S)N/N=C/c1ccc(OCc2ccccc2)cc1
IC50 (absorbance): > 40 µM

O=C(/C=C/c1ccc(Br)cc1)c1cc2ccccc2oc1=O
IC50: > 40 µM

COc1ccc(C2=Nn3c(nnc3-c3ccc(-n4nc(-c5ccccc5O)nc4-c4ccccc4O)cc3)SC2)cc1
IC50 (fluorescence): 2.91 µM

O=C(/C=C/c1ccccc1)c1cc2ccccc2oc1=O
IC50: > 40 µM
